Experimental data from different studies.
Numbered parts are unrelated; each lists some results of a single study. Changes are numbered by the printed parent chain.

Study 1 — method: RNA Bind-n-Seq; form: RNA; matrix: in vitro; tested at: not given; relative to: input RNA pool; direction: higher = stronger binding; quantity: bound/input enrichment
Target: RING finger protein unkempt homolog, zinc fingers 1-6, GST-SBP tag (UNK, Homo sapiens, UniProt Q9C0B0, residues 30-357)
Notes: RNA with constant flanks, human and mouse sites, ends assumed
Construct (chain): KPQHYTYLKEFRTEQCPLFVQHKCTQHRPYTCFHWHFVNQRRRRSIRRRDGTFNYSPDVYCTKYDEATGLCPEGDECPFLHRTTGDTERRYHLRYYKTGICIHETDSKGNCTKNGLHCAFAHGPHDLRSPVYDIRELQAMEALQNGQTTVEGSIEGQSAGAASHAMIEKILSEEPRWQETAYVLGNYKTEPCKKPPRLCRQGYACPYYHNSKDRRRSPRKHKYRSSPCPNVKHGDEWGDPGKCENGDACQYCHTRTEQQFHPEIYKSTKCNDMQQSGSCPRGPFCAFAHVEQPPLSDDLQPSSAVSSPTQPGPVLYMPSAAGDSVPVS
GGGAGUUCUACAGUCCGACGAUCGAUCAGACCAGUAAGCCUGAUGAAACUGGUAAAAGUAGUGUGCUGACUGUAUCAAAUGUAUAUAGUAGUAAAUCAAGCAUCAAGGCUACUGUGGUCUCUUCUCCUAAAGCAAAAAGUACACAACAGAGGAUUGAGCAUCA: 0.275 ratio
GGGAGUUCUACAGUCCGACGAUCUUGUGCUGAUUUUUGGUGAUCAAGCCUCAGUCCCCUUCAUAUUACCCUCUCCUUUUUAAAAAUUACGUGUGCACAGAGAGGUCACCUUUUUCAGGACAUUGCAUUUUCAGGCUUGUGGUGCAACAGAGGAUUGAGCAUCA: 0.793 ratio
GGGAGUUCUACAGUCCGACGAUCCAUGUAACUGUGAAGAAGCUGUUUGUUGGCGGAAUUAAAGAAGAUACUGAGGAACAUCACCUUAGAGAUUACUUUGAGGAAUAUGGAAAAAUUGAUACCAUUGAGAUAAUUACUGAUAGGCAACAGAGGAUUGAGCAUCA: 0.976 ratio
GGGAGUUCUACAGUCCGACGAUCAAAGCCCUUAAAGCCAAGAAGGAAGAUGGGAAUAAAGCCUUUAAGGAAGGAAAUUACAAGCUAGCAUAUGAACUGUACACAGAAGCCUUGGGGAUAGAUCCCAACAACAUAAAAACAAAUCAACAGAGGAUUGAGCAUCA: 0.301 ratio
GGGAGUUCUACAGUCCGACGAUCUUCACCGAGCUCAUUAAAGGAUUCGGUUGCCGAGGGGCCCAAGUAGAAGAAAUAUGGAGCUUAGAACCUGAGAGUUUUGAAAAGCUAAAGCCAGUUCAUGGGUUAAUUUUUCUUUUCAAGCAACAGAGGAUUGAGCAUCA: 0.176 ratio
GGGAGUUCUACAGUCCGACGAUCUCAAAGAAGACAGCAAUGGCUGCUGCCAAGGCCCCCACAAAGGCAGCACCUAAACAAAAGAUUGUGAAGCCUGUGAAGGUCUCUGCCCCCAGAGUUGGUGGGAAACGCUAGUGUGGUAGACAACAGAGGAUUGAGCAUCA: 0.39 ratio
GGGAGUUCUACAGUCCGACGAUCUGUGUGUGUGUGUGUGUGUGUGUGUGUGUGUGUGUGUGAGAGAGAGAGAGAGAGAGAUUUGUUUGUAGCCCGUGAAGGCUCCAGCAUGCUGGUCUGACUACAAAGGCCACCUCCCUUACACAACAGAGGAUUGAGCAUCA: 0.906 ratio
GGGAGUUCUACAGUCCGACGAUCGAACACCACACUGGUAAAGGUGAAAAAUGUUUUUCAGAGAGGGACUUUUCACCCCUUCAAACUCAAACAUUUAAUAGAGAAACAACUAUAAAAUGUUAUUCAACUCAGAUGAAGAUGGAACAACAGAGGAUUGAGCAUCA: 0.279 ratio
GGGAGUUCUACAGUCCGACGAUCUACUUCAGCUCCGGGAAUGAGCCUGCAGAAAACCCGGUGACGCCGAUGCUGCGGCAUCUUAUGUACAAAAUAAAGUCUACUGGUCCCAUCACUGUGGCCGAGUACAUGAAGGAGGUGUUGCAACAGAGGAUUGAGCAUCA: 0.0901 ratio
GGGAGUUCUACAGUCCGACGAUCUCAUUGCCCUCAACAUGAAGACUGCCAUAUUCCAAGUCACAUCAUUUUACCAAUGGAGUUAUAGAAUUAACAGUAUUUUCAAUUACGUUUAUAACACUGCAGAGACCUUAAGUGCUAAACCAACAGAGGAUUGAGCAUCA: 0.363 ratio
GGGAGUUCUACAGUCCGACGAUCUUUUUGCUUCCUUGUGGACAACUGAGAGUUGCUGUGGCUUGUGUGUGUGUGUGUGUGUGUGUGUGUGUGUGUGUGUGUGUGUAGUGGAAAUGUCACUAUGUUCCUGUCAUUUGUGGCUCACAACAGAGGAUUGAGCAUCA: 0.888 ratio

Study 2 — method: protein binding microarray; form: double-stranded DNA, one strand shown; matrix: in vitro; tested at: not given; relative to: not given; direction: higher = stronger binding; quantity: E-score
Target: Histone acetyltransferase KAT6A, both winged helices, GST fusion (KAT6A, Homo sapiens, UniProt Q92794, residues 1-181)
Notes: 8-mer, flanks averaged, mean of 2 arrays, mostly near background
Construct (chain): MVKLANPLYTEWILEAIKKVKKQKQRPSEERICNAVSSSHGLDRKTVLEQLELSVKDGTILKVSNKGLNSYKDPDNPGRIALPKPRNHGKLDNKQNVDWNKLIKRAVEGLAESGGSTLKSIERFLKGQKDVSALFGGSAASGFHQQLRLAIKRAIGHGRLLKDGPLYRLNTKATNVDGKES
CGCTTATA: 0.18
AAATTTAT: -0.184
GAATAACC: -0.0102
CAGTTTGG: -0.0388
ACTATGCT: -0.155
ATCTATTC: -0.112
AGAAATCT: -0.0809
GTACTCGA: -0.0563
CCGCACGC: 0.273
AGTATGCA: -0.168
GTGCACGA: -0.0334
AGTGTGAT: -0.12
CTGGGCTA: -0.167
ACCGTATA: 0.0733
CGGAGAAG: -0.00893
CGCCTTGC: 0.0644
CAATAACG: 0.105
GGAGAGTA: -0.179
TAGAAATA: -0.198
CTGCCAAC: -0.152
AGTGAGTG: -0.183
CAGTTTTC: -0.105
ATTGGTCG: -0.0785
AACTGTAC: 0.0237
AGTATGAG: -0.126

Study 3 — target: ATF3, bZIP domain (human); method: DHFR protein complementation; matrix: yeast; relative to: wild-type JUN-FOS pair; direction: higher = stronger binding; quantity: binding fitness
Notes: single substitutions, most at no-binding floor
Starting sequence: JUN, bZIP domain (human); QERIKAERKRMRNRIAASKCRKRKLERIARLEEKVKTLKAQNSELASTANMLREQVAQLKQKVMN; partner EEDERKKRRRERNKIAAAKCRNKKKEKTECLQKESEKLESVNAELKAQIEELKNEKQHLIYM
Q55T: -0.343 natural log
A29Y: -0.278 natural log
K36R: -0.0165 natural log
Q55E: 0.0188 natural log
S47E: 0.0473 natural log
A46F: -0.258 natural log
N42S: -0.477 natural log
V56W: -1.24 natural log
Q41N: -0.365 natural log
E33F: -0.296 natural log
K39G: -0.504 natural log
V35W: -0.591 natural log
E32G: -0.485 natural log
A57K: -0.14 natural log
T37Y: -0.0929 natural log
Q41L: -0.288 natural log
E44V: -0.124 natural log

Study 4 — method: RNA Bind-n-Seq; form: RNA; matrix: in vitro; tested at: 365 nM; relative to: no-protein control; direction: higher = stronger binding; quantity: RBNS enrichment (R)
Target: RNA binding protein fox-1 homolog 2, RRM domain, GST-SBP tag (RBFOX2, Homo sapiens, UniProt O43251-10, residues 100-194)
Notes: natural RNA segment, single round, ends assumed
Construct (chain): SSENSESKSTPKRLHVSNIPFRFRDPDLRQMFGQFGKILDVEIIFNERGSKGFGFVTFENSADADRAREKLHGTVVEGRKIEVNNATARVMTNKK
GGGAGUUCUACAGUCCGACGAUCACUACAUUUGUCUAAGAUAUCUCUGCUAUUGACACAUGAUGCCUUUGAAUGUCAUAGAGCAUAUUUUCUCUUUUUGCCUGUUUGCACUCUGCCAUUGCACUUUGUAAAUCUGGAAUUCUCGGGUGCCAA: 2.24
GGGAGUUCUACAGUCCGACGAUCCUACUACCUCACCGCCAAGUCCUCCCCCAGCUGUUACCACAUGAGGGAAUACAAGGUGCUAGGUACCCUCCUUCCUCGUUGGCCACUAAGAGGUCUUAGAAACAUAGCCUUGGAAUUCUCGGGUGCCAA: 0.338
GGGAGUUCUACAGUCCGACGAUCGGUCUUGGUAGCCCUAUUAUAUCAUUGCAGACACAGUGUUGUGCAUGUGUGUAUUGUAUAUGUGCACCAGCAUCAAACAUUGUGUAUCUGGAAGGAAAGCAGCAUGUUCCUGGAAUUCUCGGGUGCCAA: 13.3
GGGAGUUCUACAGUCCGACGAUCUUGCUUUGACCUCCAGCAAGGCAGGGGCAUGGAGGGACAAGGCUGCUGCUAUCAGGACCCAUUCUGGAGCCCCAUUUCUAACCUAUGAGGCCCUGCCAGCUGUCACUCAGUGGAAUUCUCGGGUGCCAA: 0.387
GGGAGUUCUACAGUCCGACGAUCCAUUUUUGAAUAGAAAACAGUUGCGUGCUUUUAUUGAAGAUUGUUAAAAUAAUCACCAUAGUAACUUGAUAUGUUAGUAUUUUUCUUUUUCCUUUUAGUAUGUUUCAAGUUGGAAUUCUCGGGUGCCAA: 0.819
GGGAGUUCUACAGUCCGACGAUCUCACUAGUGGAAAUAAAUUGUAUUAUACCAUGAUCUACUGGCUUUUUAAAACUGUAUUAAAUAUGCACAUUUUUGGUAUAGCUAUUAUCAUUUGUAUGUAUAUAUUGUAUUGGAAUUCUCGGGUGCCAA: 0.491
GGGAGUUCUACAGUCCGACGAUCACUUUCUUUCUGUAGCAUAGCUUCUGUCUCAGAUGCCCCAGCAAAUAAAUGCUGUCUCUUAUUGGUCGAACUGAAUCCUGUGUAAUAUUUGGGUUGGGAAUAUGGGAAAAUGGAAUUCUCGGGUGCCAA: 0.807
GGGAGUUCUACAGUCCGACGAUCCAAGAAGAUAUAUGUUUGUAUAUCUACAUGGCAUCCUGCACCUCAGAGCUAAGACAGGUUGCACGUCACUCUUCUGUUGUGGGUGGUGAUUGUGUCCAAUAUGGUGUCUCUGGAAUUCUCGGGUGCCAA: 0.358
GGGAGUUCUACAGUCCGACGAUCAGGUACAUCUUUUUUUCCUUACUGAAAACAAAUAUGGAUUAAUUGCCUCAAAUUUGUAUAAGUGAUUGGCUAGUGAUUCUUGUUUUCAGAAGGGAGAGUGGUAUAGAUAGUGGAAUUCUCGGGUGCCAA: 0.445
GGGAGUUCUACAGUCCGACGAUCCAUGCCAUCGCCAUGACCCCCCCUGGCAUGCCACCUCAGGGGCAUGCACCUUCAAGUGCCUUUCACUGCACACCAAAGUCCCAAAGCUCGAAGCAGCGUACUUGCCCCAGUGGAAUUCUCGGGUGCCAA: 0.67
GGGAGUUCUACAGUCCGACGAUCCGUCUCCGUGCAGAUCUUGAAGAGAAAGAACCUCGGCUGCUGUGCUGGGGUUGAACAGAGCCUCCCACCUGGGAAGGCAGAGCAGACCUGCCCAAGAGCUCCCCACACGCUGGAAUUCUCGGGUGCCAA: 0.246
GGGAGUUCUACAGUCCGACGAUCUCUGGCCAUACUUGCAUUAGUGACUGUCUUGCCUUAACCACACUUAAGCAACCCACAAAUUUCUUCUCAGAUUUGUUUCCUAGAUUACUUAUGAUACUCAUCCCAUGUCUUGGAAUUCUCGGGUGCCAA: 1.26

Study 5 — method: protein-binding microarray; form: double-stranded DNA, one strand shown; matrix: in vitro; tested at: not given; direction: higher = stronger binding; quantity: E-score
Target: Max dimerization protein 1, bHLH-zipper, MAX partner unstated (MXD1, Homo sapiens, UniProt Q05195, residues 56-136)
Notes: k-mer, scored over probes, only values ≥0.25
Residues (chain): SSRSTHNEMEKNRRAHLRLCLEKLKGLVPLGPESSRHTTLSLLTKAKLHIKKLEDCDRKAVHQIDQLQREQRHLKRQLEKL
CGTGGCCC: 0.312
CGCACACG: 0.386
AGCACGCA: 0.285
AGCACGAG: 0.367
CCTGCACG: 0.332
GACATGCC: 0.389
CGTGACAG: 0.284
GAACATGC: 0.332
CCCGCACG: 0.33
GCACATGA: 0.433
CATGTGTC: 0.45
GCGTGCCC: 0.346
ACATGGTG: 0.32
CCATGCGA: 0.307
CGCCCCGC: 0.257
CATGGTGC: 0.358
CGTGGGAC: 0.344
